# Measured values collected from several papers.
# ± gives the spread as reported.
SMILES,assay,system,conditions,how to read,measurement,value
O=C(O)CCCO,,male Sprague-Dawley rat,"intravenous, 600 mg/kg daily, day 1, acute",,respiratory frequency area below curve,4760 breaths
COc1cccc(C2(O)CCCCC2CN(C)C)c1 (centres unmarked),joint PK model,"human, whole blood","oral, dose not given, two-compartment metabolite model",,peripheral volume,0.213 L
Cc1ncc2n1-c1ccc(Cl)cc1C(c1ccccc1F)=NC2,,"wild-type mice, plasma","intravenous, 0.3 mg/kg, vehicle pretreatment 3 days",,MRT,36.4 ± 3.6 min
C#Cc1ccc2c(c1)C(c1ccccn1)=NCc1c(-c3cnco3)ncn1-2.Cl,"thermodynamic equilibrium, UV",tetrahydrofuran,"24 h, 25 °C",,solubility,336 µg/mL
CCCCCCCCCCC(=O)O[C@H]1CC[C@H]2[C@H]3[C@H]([C@@H](C)C[C@]12C)[C@H]1CCC(=O)C=C1C[C@H]3C,,human serum,"300 ng/mL, NaF 0.00 mg/mL",,DMA level,not detected
CCCCCn1cc(C(=O)Nc2cccc3ccccc23)c2ccccc21,,human liver microsomes,scaled to whole liver,,scaled intrinsic clearance,350 mL/min/kg
COc1cc2c(Oc3ccc4[nH]c(C)cc4c3F)ccnc2cc1OCC1(N)CC1,,paediatric recurrent refractory sarcoma,10 mg,,grade 1 or 2 influenza-like symptoms,25%
CN/C(=N\[N+](=O)[O-])NCc1cnc(Cl)s1,,soil,"56 days, nominal 0.37",,concentration,0.2 mg/kg dry soil
CCN(CC)C(=O)[C@@H]1C=C2c3cccc4[nH]cc(c34)C[C@H]2N(C)C1,measured: fear of death,healthy volunteers,"dose not given, 12 to 24 h","reference: placebo, direction not given",List of Complaints score,0
C=C1C[C@H]2[C@@H]3CC[C@H](O[C@@H]4O[C@H](C(=O)O)[C@@H](O)[C@H](O)[C@H]4O)[C@@]3(C)CC[C@@H]2[C@@]2(C)C=CC(=O)C=C12,,"human, postmenopausal women, serum","dose not given, GSTA1 genotype effect",,serum level,no effect
O=C1c2c(O)c(=O)ccn2N([C@@H]2c3ccccc3SCc3c2ccc(F)c3F)[C@@H]2COCCN12,,"BALB/c mice, plasma","oral, 50 mg/kg baloxavir marboxil, 4 h",,plasma concentration,217 ng/mL

# Repeated from above:
SMILES,assay,system,conditions,how to read,measurement,value
CCN(CC)C(=O)[C@@H]1C=C2c3cccc4[nH]cc(c34)C[C@H]2N(C)C1,measured: fear of death,healthy volunteers,"dose not given, 12 to 24 h","reference: placebo, direction not given",List of Complaints score,0
C=C1C[C@H]2[C@@H]3CC[C@H](O[C@@H]4O[C@H](C(=O)O)[C@@H](O)[C@H](O)[C@H]4O)[C@@]3(C)CC[C@@H]2[C@@]2(C)C=CC(=O)C=C12,,"human, postmenopausal women, serum","dose not given, GSTA1 genotype effect",,serum level,no effect
